Measured values of several laboratories.
Each numbered part is a random draw from the data of one study; scales do not carry over between parts. Positions count from the first letter of the parent shown.

Sample 1
Molecule: PhoQ, residues 284 288 289 292 302 303 AGHLVA
Technique: Sort-seq
Measured: YFP reporter
Matrix: E. coli
Notes: PhoQ-PhoP variant library
Together with: 10 µM Mg2+
Baseline: high Mg2+ state
Reading: higher = stronger signaling
| target | fold induction |
| --- | --- |
| PhoP, residues 12 14 15 18 19 LHTVL (Escherichia coli, UniProt P23836) | 2.98 |
| PhoP, residues 12 14 15 18 19 NQCAL (Escherichia coli, UniProt P23836) | 9.05 |
| PhoP, residues 12 14 15 18 19 TQAML (Escherichia coli, UniProt P23836) | 20.7 |

Sample 2
Target: CCND2, cyclin fold, Cln2 fusion (human)
Technique: yeast growth competition, sequencing
Matrix: yeast
Notes: weak parent motif
Baseline: not given
Reading: higher = stronger binding
Starting sequence: E2F1 docking peptide (human); PPVKRRLDLETDH; partner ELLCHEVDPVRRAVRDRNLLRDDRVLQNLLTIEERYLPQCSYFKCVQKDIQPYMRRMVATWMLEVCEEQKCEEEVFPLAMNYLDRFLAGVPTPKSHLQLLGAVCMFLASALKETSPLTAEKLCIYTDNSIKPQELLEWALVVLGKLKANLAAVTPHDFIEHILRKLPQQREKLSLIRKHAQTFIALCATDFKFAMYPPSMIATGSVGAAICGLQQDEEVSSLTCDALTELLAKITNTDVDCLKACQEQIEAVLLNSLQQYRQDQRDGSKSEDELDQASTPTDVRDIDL
| Variant | normalised enrichment score |
| --- | --- |
| H13S | 0.462 |
| P2D | 0.359 |
| T11E | 0.116 |
| P2N | 0.212 |
| H13P | -0.604 |
| R6E | 0.568 |
| T11W | 0.557 |
| E10C | 0.203 |
| V3E | 0.192 |
| D12E | 0.401 |
| R6L | 0.308 |
| P2T | 0.227 |
| R6W | 0.223 |
| R6P | -0.135 |

Sample 3
Target: ABI1, truncated, D143A, DHFR fusion (Arabidopsis thaliana)
Technique: DHFR PCA, deep sequencing
Matrix: yeast
Notes: methotrexate growth selection, single substitutions
Together with: (+)-ABA 0.032 µM
Baseline: wild-type fitted maximum
Reading: higher = stronger binding
Starting sequence: PYL1, truncated, DHFR fusion (Arabidopsis thaliana); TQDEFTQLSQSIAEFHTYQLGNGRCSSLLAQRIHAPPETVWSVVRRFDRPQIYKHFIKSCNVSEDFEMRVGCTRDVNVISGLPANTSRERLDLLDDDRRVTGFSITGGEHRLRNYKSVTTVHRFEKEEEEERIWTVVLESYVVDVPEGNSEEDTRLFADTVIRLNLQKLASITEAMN
| Variant | relative binding score |
| --- | --- |
| E64K | 37.9% |
| H55I | 19.6% |
| R32I | 24.9% |
| R111K | 8.7% |
| Q51V | -3.17% |
| R113A | 10.5% |
| Q2V | 60.4% |
| I52D | 43.2% |
| K168P | -2.59% |
| E64N | 25.4% |
| Y141G | -5.81% |
| L20M | 22.5% |
| P37I | 1.15% |
| E139C | 3.46% |
| R132E | 53.7% |
| D159K | -5.95% |

Sample 4
Target: Ras GTPase-activating protein-binding protein 1, full length (G3BP1, Homo sapiens, UniProt Q13283)
Chain of UniProt Q13283 (whole entry, looked up): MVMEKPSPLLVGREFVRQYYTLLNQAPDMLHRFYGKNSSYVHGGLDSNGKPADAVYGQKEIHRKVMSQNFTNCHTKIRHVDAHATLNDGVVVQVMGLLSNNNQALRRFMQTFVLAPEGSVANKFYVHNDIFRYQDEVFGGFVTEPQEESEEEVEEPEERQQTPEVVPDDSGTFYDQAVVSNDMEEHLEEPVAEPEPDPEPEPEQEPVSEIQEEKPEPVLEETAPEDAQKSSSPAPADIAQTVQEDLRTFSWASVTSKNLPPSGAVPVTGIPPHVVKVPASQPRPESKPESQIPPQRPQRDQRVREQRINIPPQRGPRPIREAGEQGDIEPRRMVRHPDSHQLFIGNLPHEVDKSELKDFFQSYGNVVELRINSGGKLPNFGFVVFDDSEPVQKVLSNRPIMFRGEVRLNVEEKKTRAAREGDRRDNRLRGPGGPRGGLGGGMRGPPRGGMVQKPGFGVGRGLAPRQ
Technique: RNA Bind-n-Seq
Form: RNA
Matrix: in vitro
Tested at: 200 nM
Notes: whole 134-nt RNA, ends assumed
Together with: 150 mM LiCl
Baseline: input library
Reading: higher = stronger binding
Library: 7-deaza-guanosine replaces G
All sequences stand within: GGGAGUUCUACAGUCCGACGAUC … UGGAAUUCUCGGGUGUCAAGG
| Oligonucleotide | log2 enrichment |
| --- | --- |
| CCUGUGCUACACAUCGUAUGUACCGAAUCGGGGAAAGGGGAAAAAAAGGGGAAAAAGGGGAAAGUAUUAUGUUACGCCGUUCGGAUCUGC | 0.943 |
| ACCAUGCAGGUGGGCAUGUUUGGGAAGUGGGGCAAGGGGGGGAUAGGGAGGGGGGUAACACUUUGGGAACAGGUGGUCCCAGGUCGUUUC | 0.484 |
| CUCAAGUCCUGUGCUACACAUCGUAUGUACCGAAUCGGGGUGGGGUGGUGGGGAAAGUAUUAUGUUACGCCGUUCGGAUCUGCACUUCCA | -0.34 |
| UGGGAGGUGGAUUUUGUUUAUUUUUUUAGCUCAUUUCCAGGGGUGGGAAUUUUUUGUUAAUAUGUGUCAUGAAUAAAGUUGUUUUUGAAA | -0.497 |
| CAAGUCCUGUGCUACACAUCGUAUGUACCGAAUCGGGGUUUGGGUUUGGUUUGGGGAAAGUAUUAUGUUACGCCGUUCGGAUCUGCACUU | -0.296 |
| CAAGUCCUGUGCUACACAUCGUAUGUACCGAAUCGGUUUGGUUUUUUUGGUUUGGAAAGUAUUAUGUUACGCCGUUCGGAUCUGCACUUC | -1.37 |
| CCUCAAGUCCUGUGCUACACAUCGUAUGUACCGAAUCGGGGCGGGGCGGCGGGAAAGUAUUAUGUUACGCCGUUCGGAUCUGCACUUCCA | 0.0889 |
| AAGUCCUGUGCUACACAUCGUAUGUACCGAAUCGGGAAAAGGAAAAGGGGAAAAGGAAAGUAUUAUGUUACGCCGUUCGGAUCUGCACUU | -0.333 |
